Measured values collected from several papers.
Every numbered part comes from another study and shows a few of its results, in no order.

Study 1
Target: RING finger protein unkempt homolog, zinc fingers 1-6, GST-SBP tag (UNK, Homo sapiens, UniProt Q9C0B0, residues 30-357)
Chain of UniProt Q9C0B0 (30-357, looked up): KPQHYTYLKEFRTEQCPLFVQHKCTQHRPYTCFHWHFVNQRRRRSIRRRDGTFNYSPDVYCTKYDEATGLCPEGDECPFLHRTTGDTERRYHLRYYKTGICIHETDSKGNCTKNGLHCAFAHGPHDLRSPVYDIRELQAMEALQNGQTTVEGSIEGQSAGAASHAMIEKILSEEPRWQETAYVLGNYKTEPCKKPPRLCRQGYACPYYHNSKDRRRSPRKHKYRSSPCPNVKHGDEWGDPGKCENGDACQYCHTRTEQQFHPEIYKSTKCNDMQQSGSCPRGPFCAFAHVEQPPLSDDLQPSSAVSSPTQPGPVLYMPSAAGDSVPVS
Technique: RNA Bind-n-Seq
Molecule type: RNA
Sample: in vitro
Tested at: not given
Setting: RNA with constant flanks, human-mouse chimeric sites, ends assumed
Baseline: input RNA pool
Reading: higher = stronger binding
Shared flanks, not repeated: GGGAGUUCUACAGUCCGACGAUC … CAACAGAGGAUUGAGCAUCA
Strand	bound/input enrichment [ratio]
AAAGAGUGGAUAGAGUGUGCACACGGGAUCGGUGGGACCCGGGCGAAAAAGGAGUGCAAGAUAGAGUUCGAUGACUUCGAAGAGUGCUUGCUUCGGUAGAAAACGAUGAGACGUGCACAU	0.37
CUGUGUGGCUUACUAAAUGAUUUGUGAAAGAAGUUUUUCCAAGCUGUAACCCAUGCUGUUAUUAUAGUUGCUGCAAAAUGUUCUUCCUGAUAUUGAUUUUAUUUGUUAACUGAAGGUCUC	0.741
AACGUGGAGUUGAGUUCCUUGGCCCGGCUUCCCAGCUUAAAUAAACUCCGGAAGUUGGAGCUUAGUGACAAUAUAAUUUCUGGAGGCUUGGAAGUCCUGGCAGAGAAAUGUCCAAAUCUU	0.138
GUUGCCAGCUUCCGGUUCCGUUGGGCUCGGUUCUCUCCUGAGCUACGUGUCUCUACGCUCUCAAUCCGCCAUCCAACAAACAUGGAUGAUCAGGUAAUGCAGUUUGUGCCCAGCCGGCAG	0.12
AGAGCCCAGGAUGUUGAUGCUACAAACCCAAAUUACGAAAUUAUGUGUAUGAUCAGAGACUUCAGAGGGAGCUUGGAUUACAGACCCCUAACAACAGCAGAUCCUAUUGAUGAACAUAGG	0.311
UCCCAAAUUAUAAGGCAAGAAGGAGCCUUGAGACAAAGCCUGGAAAUACAGGGAAGGCGAUAACAUUGUACAUUGGUUUACAUUUUUUCCCCCUGUGGAUUUUUCUAGAGGUCAUAGUGC	0.342
CACGUGUCUGCAGUACUUGAUGUGGAUUACUCUCCCACUGGGAAGGAAUUUGUGUCUGCUAGUUUCGAUAAGUCUAUUAGAAUCUUUCCUGUGGACAAGAGCCGAAGCAGGGAAGUGUAU	1.46
CUGGCCUGGCCCUCCCCAGGGGCCUCCUUUCGUAUAGUCACUGCUUCUGCAUCAGAUAUUUUUAGCUGCAACUCCCUACUGGGUGGGGCACCCAUUUGAGGCAGGGUGUUUUGGUACCCU	1.05
AAAGAGAAACUAAAGCAACUAAUAGAGAAGAGGAUUGGCAAAGAGAAAUUUCAUAGAAAACUAGGAUUUAUUAGCAAACAUGAGUUAUAUUCCAGAGCGUCUCAGAAACCCCAGCCAAAC	15
UUGGAAGGACCAGAGCCUAAUCAACUGAAACCAUUAGUUAUACAGGCUAUGCCCACCCUAAUAGAAUUAAUGAAAGACCCCAGUGUAGUUGUUCGAGACACAACAGCGUGGACUGUGGGC	2.23
AAAGAAUGGAUAGAGUGUGCACACGGGAUCGGUUAUACCCGGGCGAAAAAGGAGUGCAAGAUAGAGUUCGAUGACUUCGAAGAGUGCUUGCUUCGGUACAAAACGAUGAGGCGAAUGCAU	0.462

Study 2
Target: Interferon regulatory factor 5, full length, phosphomimetic (IRF5, Homo sapiens, UniProt Q13568-2, residues 1-514, K96S/S451D/S453D/S456D/S462D)
Technique: protein-binding microarray
Molecule type: double-stranded DNA, one strand shown
Sample: in vitro
Tested at: 250 nM
Setting: 60-bp whole probe
With: salmon DNA 0.4 mg/ml
Baseline: random background probes
Reading: higher = stronger binding
Shared flanks, not repeated: GCCTAGCAC … GTCTTGATTCGCTTGACGCTGCTG
Strand	log fluorescence [z-score]
GACGGACTGGGGACTGGGGAAGTGCTA	-0.717
TTAGGTACCCTTCTCCTTTAGTGCTAG	0.0724
GACGGACTGCTTATTCTGACGTGCTAG	-0.298
TTATGTTTCCTTATCCTTTAGTGCTAG	1.6
TCACATGTTGCTCTCCGACTGTGCTAG	-0.215
GACGGTCTCGGTCCCGGGACGTGCTAG	-0.00837
TCATGGCTCCCTATAAAACTGTGCTAG	-0.519
TCACCTCTTTCACTGGTACTGTGCTAG	2.66
TTCTCCATGGGTATGGCCTAGTGCTAG	-0.167
TCACATTGCCTATTTTTCACTGTGCTA	1.08
CACGATTTCAGTTTCGAGACGTGCTAG	7.14
TTAGGTATCCTTTTTCTTTAGTGCTAG	0.722
GACGGACTGCTACTGCTGATGTGCTAG	-0.558
TTCACTTTCTTTAACTCATTGTGCTAG	3.48
TCACTTATCCTATCAGTACTGTGCTAG	0.98
TTAGGTTGCCTTCTCCTTTAGTGCTAG	0.128
GCGGGAGAAAGCAAGCCCAGGTGCTAG	-0.0878
TTAGATATCAGTATCGATTTGTGCTAG	7.16
TTAGAGATCAGTTTCGATTAGTGCTAG	9.23
TCAGCTCTCTGGACTGTGACTGTGCTA	-0.015
GACGGACTCGACTATCGGGACGTGCTA	0.905
TCAAATTTTCATTTTCCACTGTGCTAG	2.19
TTAGGTTTGGACACTGGGTTAGTGCTA	-0.0949
TTAGGACAGCTTTTCCTTTAGTGCTAG	0.0543
GACGGACTGGGGTATCGTGACGTGCTA	-0.451

Study 3
Target: Histone acetyltransferase KAT6A, winged helix 2, GST fusion (KAT6A, Homo sapiens, UniProt Q92794, residues 85-181)
Technique: protein binding microarray
Molecule type: double-stranded DNA, one strand shown
Sample: in vitro
Tested at: not given
Setting: 8-mer, flanks averaged, mean of 2 arrays, mostly near background
Baseline: not given
Reading: higher = stronger binding
Target sequence (chain): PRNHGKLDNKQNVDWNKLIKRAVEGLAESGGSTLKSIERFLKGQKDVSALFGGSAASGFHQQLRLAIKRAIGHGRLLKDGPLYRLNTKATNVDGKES
Strand	E-score
CAATCTAG	0.101
CAGTGCTC	0.0605
AAGCGCAC	-0.00041
AGAATAGC	-0.0577
AGCGGTAT	-0.0335
ATGAGTCA	-0.179
CTGCGTGA	0.0493
ATTCATGA	-0.0996
CCATTCCG	0.0012
AATACTTC	-0.0975
GCCCGAAA	0.136
GGTTACCA	0.0206
GAAGGTTA	0.0035
GCGTGGCC	0.129
AATAAAAA	0.0359
CAGTCATG	-0.164
CCGGCAAG	0.1
AGAAGTGC	-0.0376
CATTCAGA	-0.0765
CGGTGACG	0.054
AAAGCCCT	-0.108
ATGAACAG	-0.0215
CTGCTAGA	0.0409

Study 4
Target: RNA binding protein fox-1 homolog 2, RRM domain, GST-SBP tag (RBFOX2, Homo sapiens, UniProt O43251-10, residues 100-194)
Technique: RNA Bind-n-Seq
Molecule type: RNA
Sample: in vitro
Tested at: 365 nM
Setting: natural RNA segment, single round, ends assumed
Baseline: no-protein control
Reading: higher = stronger binding
Shared flanks, not repeated: GGGAGUUCUACAGUCCGACGAUC … UGGAAUUCUCGGGUGCCAA
Construct (chain): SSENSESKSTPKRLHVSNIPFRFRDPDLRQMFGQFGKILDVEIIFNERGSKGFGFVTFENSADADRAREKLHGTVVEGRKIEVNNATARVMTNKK
Strand	RBNS enrichment (R)
ACAGAAGGCAUUGUUCCCUACCCUCUGGCGAGUGCAUGCAGCAGAGAGUUAGACAGCAACUUACCUACUCUGAAGUUUUCUACAACAAAAAAAGAGUUGAGUGAAUCUGU	16.4
UUGGGGGGCUGACACCCAGAGAACAAGGACACUCAGAUGGGAGUUGGUAGUACGUGGUACAGUGGCUUUUCUCUGUGGUCAUGUCUUAGGGGCAAAGGCGUGUGGAUGGU	0.945
CCCUUAUUUAGAAAGGAAACUGUGUGGGGGGAGAUGCAGGCCUGAGCCCCAUAGCGAGCUUGCCUUUUCUGACUGGGUCUUCUGGUCCCCCCUACACCAGCCAUAGGCCU	0.458
UUUUGGUUCUUGGCUUGGGGCUUUUUGUUGUUGUUGUUCUUAAUAAUAUGAGAAUCCAGUUCUCAUGACAAGAACCAGUUUAAAAACUGCUCGUUCUUAAAAAGGUAAAA	0.672
ACACCUAAGUCGUGAGCAUAUCCUGAGUUUUACUUCCUUAUGGCUUGCCCUCCAAGUUCUCUCUCUCAUACACACACACACCCUUGCUCCAGAAUCACCAGACACCUCCA	1.57
UUUUUUGCUUAAUCAAACUCCAUUCCCAAAUGCACUCCAUCUCUGGCUCUGAGGGCGCUCCCUCCUCUCAGCCGGGCAGCCUGGCCUCUCCUGCCCAGACCUGCGGUCCC	0.996
UGAUGUUUAGGAAUGUUUGUCUCAGCCACAGUUCCUUCAUAGCUUUUCCAAAAUGAAUUGGGAAAAAAAAAUCGUAUAGCAGUCUUAAAGCUUAGUAAUGGAACUUGGCU	0.506
GAAGAAGUUGGAGGAUGGUGCUGAAUGCAGUUUUGUUUAUUCCAAGAAAAAAUAUUUAUAAUAAAAUCAUUUGUAGGAAGAUGUUUAAGAAGUUAGGAAAUUCAGUUUGU	1.21
CAAACCAGUGGGGGUUGGACAAUGAAUGUAGUUAACUGGUUCCUGCUCACACUCCAGAAUUAAAUUCUAUUGAAAAAGGAAAAUCAGCAAUUCAGCAAAAAAUAAAUAAA	0.448
ACACAUCAUCAUCGAAGUCUUCCCCAGUUAUAAAGAGGUCACAUAGUCGUGUGGGUCGAGGAUUCUGUGCCUCCAGGACCAGGGGCCCACCCUCUGCCCAGGGAGUCCUU	0.359
AGUUCUGCAUUUAAAAUAUAUUUUUUCUUUAUAGGAAUUGAUGUAUACCAUGAAGUCAUUGUCAGUUGUAGUAGCUCUGAUGUUGAAUGAGAUAUCAUGUUUUAGCAUUC	0.866
UGACUGUACUCACGGCUAACUUGAAGUAUUAAAAUGAGGCUGUACUCUACACACUUCCUAGUCACGCAGGAUCCCUGUAGCCAAAACAGUAUAUGUUCCAGCUGCAGAGA	0.189

Some of these lines once more (study 3):
Strand	E-score
CATTCAGA	-0.0765
AAAGCCCT	-0.108
CCGGCAAG	0.1
GGTTACCA	0.0206
ATTCATGA	-0.0996
ATGAGTCA	-0.179
AGAATAGC	-0.0577
